Measured values of several laboratories.
Each line is one published result; not all experiments were run side by side. “And” joins repeats or separate records; there may be more than shown.

Structure (SMILES) = Cc1ncsc1-c1ccc(C(C)NC(=O)C2CC(O)CN2C(=O)C(NC(=O)CCCCCCCCCCN2CCCC(Nc3ncc(Cl)c(Nc4ccccc4S(=O)(=O)C(C)C)n3)C2)C(C)(C)C)cc1 (stereo not shown); target or system = 22Rv1; test = RNA-seq, item: NAB2 mRNA; conditions = concentration not given; how to read = baseline: DMSO; quantity = log2 fold change; result = -1.52
Structure (SMILES) = C=CC(=O)N1[C@@H](c2ccc3c(c2)OCO3)c2[nH]c3ccccc3c2C[C@H]1C(=O)N1CCN(C)CC1; target or system = human cyclin E1 wild type-3xFLAG:CDK2; test = co-IP with TMT proteomics, item: PRPF8; conditions = concentration not given, Q6P2Q9; how to read = baseline: wild type DMSO; quantity = relative co-enrichment; result = 78%
Structure (SMILES) = CN1CCCNC(=O)c2cccc(c2)C(=O)NCCCN(C)CCCNc2cccc3c2C(=O)c2cccc(c2C3=O)NCCC1; target or system = SAS; test = RNA-Seq, item: IWS1 mRNA; conditions = 1 µM, 6 h; how to read = baseline: untreated cells; quantity = log2 fold change; result = -0.65
Structure (SMILES) = CCN(C(=O)c1cc(F)ccc1Oc1nncnc1N1CCC2(C1)CN([C@H](CCCN(C)CCOC)C(C)C)C2)C(C)C; target or system = MT-3; test = cell growth or viability; conditions = 72 h; quantity = GI50; result = > 10000 nM
Structure (SMILES) = COC1CN([C@H]2CC[C@H]([C@@]3(C)Oc4c(Cl)cc(C(=O)NCc5c(SC)cc(C)[nH]c5=O)c(C)c4O3)CC2)C1; test = RNA-seq, item: RAB19; test system = human, whole blood; conditions = dose not given, 24 h; how to read = baseline: pretreatment baseline; quantity = log2 fold change; result = 2.07
Structure (SMILES) = CN(C)C(=O)c1ccnc(N2Cc3cn(Cc4ccc(F)cc4F)nc3C2)n1; test system = cuprizone-diet mice, rotarod test; conditions = oral, 5 mg/kg; quantity = rotarod speed at fall; result = 23 RPM and 13 RPM and 16 RPM and 11 RPM
Structure (SMILES) = Nc1ncc(-c2cc(-c3cnn(CC(F)(F)F)c3)ncc2F)nc1C(=O)NC1CNCC(F)C1 (stereo not shown); target or system = BMX; test = KINOMEscan; conditions = 1 µM; how to read = baseline: DMSO control; quantity = remaining binding; result = 91%
Structure (SMILES) = Cn1ncc2cc(-c3cncc(Cl)c3N3CCC4(CCNC4=O)CC3)ccc21; target or system = LS174T; test = gene expression, microarray, item: HOXC4 mRNA; conditions = concentration not given, 24 h; how to read = baseline: untreated cells; quantity = log2 fold change; result = 2.45
Structure (SMILES) = C=CC(=O)Nc1cccc(Cn2ncc3cnc(Nc4cnn(CCOC)c4)nc32)c1; target or system = YSK1 human; test = binding, KINOMEscan; conditions = 100 nM; how to read = lower = stronger binding; quantity = percent of control; result = 100%
Structure (SMILES) = CNS(=O)(=O)Nc1nccc(Cc2c(C)c3ccc(Oc4ncccc4F)cc3oc2=O)c1F; target or system = 647-V; test = cell viability; conditions = 7 days; quantity = IC50; result = 53.8 nM
